Measured values of several laboratories.
Compare with care: the assays were run in different laboratories. ± gives the spread as reported.
Chain of UniProt Q02750 (whole entry, looked up): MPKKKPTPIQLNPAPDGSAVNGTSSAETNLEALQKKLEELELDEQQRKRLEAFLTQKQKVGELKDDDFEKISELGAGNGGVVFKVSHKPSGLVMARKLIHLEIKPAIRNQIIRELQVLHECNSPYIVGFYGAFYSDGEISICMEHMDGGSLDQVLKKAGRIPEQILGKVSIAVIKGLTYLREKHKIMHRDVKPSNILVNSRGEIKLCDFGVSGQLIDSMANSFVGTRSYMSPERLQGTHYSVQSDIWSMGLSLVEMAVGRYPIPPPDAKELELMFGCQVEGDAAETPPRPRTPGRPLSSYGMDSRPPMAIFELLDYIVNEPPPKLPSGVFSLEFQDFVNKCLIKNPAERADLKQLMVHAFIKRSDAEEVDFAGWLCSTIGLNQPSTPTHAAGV

SMILES	tested on	test	system	setting	how to read	measurement	result
O=C(C[Se]C(=O)c1ccccc1Nc1cccc(C(F)(F)F)c1)Nc1cccc(C(F)(F)F)c1	NCI60 melanoma subpanel	cytotoxicity, inhibitor	–	five-dose	–	CC50	10.6 µM
COc1ccccc1-c1n[nH]c2nc(NC3CCN(C(=O)Cc4ccc(F)cc4F)CC3)ncc12	–	bead binding, competition bead pull-down, item: LINJ.30.3390	Leishmania donovani extract	10 µM	baseline: vehicle	relative abundance	1.32
O=C1NC2(CC2)COc2ncc(F)cc2[C@H]2COCCN2c2ccn3ncc1c3n2	–	–	Sprague-Dawley rat, male, serum	oral, 5 mg/kg/day, 4 weeks daily, end of treatment	–	pancreatic amylase activity	2090 ± 418 U/L
CC(C)[C@H](NC(=O)[C@H](CCCNC(=N)N)NC(=O)[C@@H]1CCCN1C(=O)[C@@H](NC(=O)[C@H](C)NC(=O)[C@H](Cc1ccc(O)cc1)NC(=O)[C@H](CCC(N)=O)NC(=O)[C@H](CCCCN)NC(=O)[C@H](CCCNC(=N)N)NC(=O)[C@@H]1CCCN1C(=O)[C@H](CCC(=O)O)NC(=O)[C@@H](NC(=O)[C@H](C)N)[C@@H](C)O)[C@@H](C)O)C(=O)N[C@@H](Cc1ccccc1)C(=O)N[C@@H](Cc1c[nH]c2ccccc12)C(=O)N[C@H](C(=O)N[C@@H](CC(=O)O)C(=O)N[C@@H](C)C(=O)N1CCC[C@H]1C(=O)NCC(=O)NCCOCCOCCOCCOCCOCCOCCOCCOCCOCCOCCOCCOCCC(=O)N[C@@H](CS)C(N)=O)[C@@H](C)O	H2122 lung adenocarcinoma	cell binding, phage binding, item: output/input phage	–	10 min, 37 °C	baseline: control phage	selectivity ratio	0.56 ± 0.14
NC(=O)N/N=C/c1ccc(OCc2cccc(F)c2)cc1	IMR-32	item: GPX3	–	500 µg/mL, 24 h	higher = more activity	glutathione peroxidase activity (OD450)	0.159 a.u.
O=C(C[Se]C(=O)c1ccccc1)Nc1cccc(C(F)(F)F)c1	NCI60 melanoma subpanel	cell growth, inhibitor	–	five-dose	–	GI50	2.22 µM
CC(C)C[C@@H](/C=C/[C@H](Cc1ccccc1)C(=O)N1CCC[C@H]1C(=O)N[C@H](C(=O)N[C@@H](CCCNC(=O)OCc1ccccc1)C(=O)NC1CC(C)(C)N([O])C(C)(C)C1)C(C)C)NC(=O)OC(C)(C)C	PANC-1	protection from ferroptosis, PrestoBlue	–	24 h, together with: erastin 10 µM	–	EC50	0.089 µM
COc1ccccc1-c1n[nH]c2nc(N[C@H]3CC[C@H](NS(=O)(=O)CC(C)C)CC3)ncc12	–	bead binding, competition bead pull-down, item: LINJ.29.2220	Leishmania donovani extract	10 µM	baseline: vehicle	relative abundance	0.91
CC[C@H](C)[C@H](NC(=O)[C@H](Cc1c[nH]c2ccccc12)NC(=O)[C@H](CCCCN)NC(=O)[C@H](CO)NC(=O)[C@H](CC(C)C)NC(=O)[C@H](Cc1ccccc1)NC(=O)[C@@H](NC(=O)[C@H](CCCCN)NC(=O)[C@H](CC(C)C)NC(=O)[C@H](CC(C)C)NC(=O)[C@H](CCCCN)NC(=O)[C@@H]1CCCN1)[C@@H](C)O)C(=O)NCC(=O)N[C@@H](CS)C(N)=O	human red blood cells	–	–	pH 5.5	baseline: Triton X-100	EC50	> 100 µM
CC(C)(C)C(=O)OCOP(=O)(OCOC(=O)C(C)(C)C)C1CCCN(O)C1=O (stereo not shown)	K562	–	–	–	–	CC50	> 100 µM
CN(C)[C@H]1C[C@@]23CC[C@@]4(O2)C(=CC[C@]2(C)[C@@H](c5ccc6ccncc6c5)CC[C@H]24)C=C3[C@@H](O)[C@@H]1O	MAP2K1 (Homo sapiens, UniProt Q02750)	ATP probe labelling, inhibitor, KiNativ profiling	–	0.1 µM	–	inhibition	-18.8%
CSCC[C@H](NC(=O)[C@@H](NC(=O)[C@H](CCC(N)=O)NC(=O)[C@H](CO)NC(=O)[C@@H](N)C(C)C)[C@@H](C)O)C(=O)N[C@@H](CCCNC(=N)N)C(=O)N[C@@H](CCC(N)=O)C(=O)N[C@H](C(=O)N[C@@H](C)C(=O)N[C@H](C(=O)N1CCC[C@H]1C(=O)N[C@@H](CC(C)C)C(=O)N[C@@H](CC(C)C)C(=O)N[C@@H](Cc1c[nH]c2ccccc12)C(=O)N[C@@H](Cc1ccccc1)C(=O)N[C@@H](Cc1c[nH]c2ccccc12)C(=O)N[C@H](C(=O)NCC(=O)N[C@@H](CO)C(=O)N[C@@H](CC(C)C)C(=O)NCCOCCOCCOCCOCCOCCOCCOCCOCCOCCOCCOCCOCCC(=O)N[C@@H](CS)C(N)=O)[C@@H](C)O)C(C)C)[C@@H](C)O	H2882 lung carcinoma	cell binding, phage binding, item: output/input phage	–	10 min, 37 °C	baseline: control phage	selectivity ratio	1.5 ± 0.36
Cc1cc(Oc2nc(N3CC[C@@H](c4ccncc4)C3)ncc2F)[nH]n1	C-33-A	cell proliferation	–	–	–	IC50	26.9 µM
